Results collected from several papers.
Lines come from different studies, so protocols differ. Several values in a cell are separate wells, animals, samples, runs or records. ± gives the spread as reported. Converted amounts (≈) assume the structure as drawn.

Structure (SMILES)	organism	test	test system	setting	scale	measurement	value
COCC(=O)N1CCC[C@H](C(=O)NCc2nc(-c3ccc(-c4ccccc4)cc3)cs2)C1	Plasmodium falciparum	SYBR Green growth	asexual blood-stage parasites, 3D7	72 h		EC50	11 ± 2.1 nM
COc1ccc(C[C@H](NC(=O)[C@H](C)NC(=O)CN2CCOCC2)C(=O)N[C@@H](Cc2ccccc2)C(=O)C2(C)CO2)cc1 (stereo in doubt)	Plasmodium berghei	parasitaemia, 4-day suppression test	ANKA, infected BALB/c mice	oral		ED50	7.62 mg/kg
O=C1C(Cl)=C(n2ccnc2)C(=O)c2ccccc21	Serratia marcescens		MTCC 4301	10 µg/mL		zone of inhibition	9 mm
Nc1nc(-c2ccccc2)nc2[nH]nc(Nc3ccc(C(F)(F)F)cc3)c12	coxsackievirus B3		31-1-93, NMRI mice, CVB3 chronic myocarditis	oral, 100 mg/kg twice daily, day 6, dosed days 3 to 10, score scale 0 to 7	direction not given	clinical score	1
N=C1C=CC(=C(c2ccc(N)cc2)c2ccc(N)cc2)C=C1	Drosophila melanogaster	fluorescence		liquid food, 40 µg/mL, first instar larvae	relative to: solvent	fluorescein ingestion	-79.1%
CNC(=O)c1cc(Oc2ccc(NC(=O)Nc3ccc(F)c(C(F)(F)F)c3)cc2)ccn1	Drosophila melanogaster	rescue from lethality	ptc>dRet M955T	concentration not given, 25 °C, compound in food		toxicity	not toxic
CC(=Nc1ccc(N=Cc2cnccn2)cc1)N(C)C	Necator americanus		hamster (Mesocricetus auratus), infected	oral, 50 mg/kg single dose, 24 h		anthelmintic rate	100%
N=C(N)c1ccc(OCc2cc(COc3ccc(C(=N)N)cc3)cc(-c3ccccc3)c2)cc1	Escherichia coli	checkerboard	BW25113	concentration not given, lowest-FICI combination, added: erythromycin		MIC of compound in combination	6.25 µg/mL
CC1CCC(C(C)C)C(OC2=C(Cl)C(=O)c3ccccc3C2=O)C1 (centres unmarked)	Serratia marcescens		MTCC 4301	10 µg/mL		zone of inhibition	22 mm
O=C1c2ccc(O)c(O)c2C(=O)c2c(O)ccc(O)c21	Drosophila melanogaster	fluorescence		liquid food, 40 µg/mL, first instar larvae	relative to: solvent	fluorescein ingestion	-18.2%
COc1cc(OC)c(CCNC(=O)c2cn3cc(-c4cc(OCC(=O)O)ccc4OC)nc3s2)c(OC)c1	Plasmodium falciparum	LDH readout	3D7 Hyp1-Nluc	20 µM, 72 h	relative to: DMSO	parasite growth	29.9%
N=C(N)c1ccc(OCc2cc(Br)cc(COc3ccc(C(=N)N)cc3)c2)cc1	Escherichia coli	checkerboard	BW25113	concentration not given, lowest-FICI combination, added: erythromycin		MIC of compound in combination	6.25 µg/mL
N[C@H](COCC(=O)N1CCC[C@H](C(=O)NCc2nc(-c3ccc(C(F)(F)F)cc3)cs2)C1)c1ccccc1	Plasmodium falciparum	SYBR Green growth	asexual blood-stage parasites, 3D7	72 h		EC50	11 ± 7.4 nM
COc1ccc(OCCCO)cc1-c1cn2cc(-c3nnc(NCCCCc4ccccc4)o3)ccc2n1	Plasmodium falciparum	nanoluciferase readout	3D7 Hyp1-Nluc	20 µM, 72 h	relative to: DMSO	parasite growth	0.705%
CC(C)n1ncc2c(C(=O)NCC3(C)CNC3)cc(C3CC3)nc21	coxsackievirus A16		RD	5 µM		cell protection	102% and 99.4%
COc1ccc(CNc2nc(-c3ccc(C(=O)O)nc3)nc3sc4c(c23)CCCC4)cc1Cl	Plasmodium falciparum	LDH readout	3D7 Hyp1-Nluc	2 µM, 72 h	relative to: DMSO	parasite growth	30.2%
O=C(NCc1nc(-c2ccc(C(F)(F)F)cc2)cs1)[C@H]1CCCN(C(=O)CO[C@@H]2CCCNC2)C1	Plasmodium falciparum	SYBR Green growth	asexual blood-stage parasites, 3D7	72 h		EC50	100 ± 36 nM
CN(C)CCCN1c2ccccc2Sc2ccc(C(F)(F)F)cc21	Drosophila melanogaster	fluorescence		liquid food, 40 µg/mL, first instar larvae	relative to: solvent	fluorescein ingestion	-11.9%
COc1cc2c(cc1OC)[C@@H]1C(=O)c3ccc4c(c3O[C@@H]1CO2)C=CC(C)(C)O4	human adenovirus C5		A549	concentration not given, 72 h	relative to: DMSO control	minimum progeny production	35%
CC1(C)c2nc(-c3ccc(F)cc3)c(Nc3ccc(F)cc3)n2CCN1C(=O)CN	Plasmodium berghei	parasite growth, luciferase bioluminescence	HepG2 spheroids infected	24 h		EC20	17.9 nM
CN1CCC[C@@H]1CCO[C@](C)(c1ccccc1)c1ccc(Cl)cc1	Drosophila melanogaster	fluorescence		liquid food, 40 µg/mL, first instar larvae	relative to: solvent	fluorescein ingestion	-16.9%
CN[C@H](CC(C)C)C(=O)N[C@H]1C(=O)N[C@@H](CC(N)=O)C(=O)N[C@H]2C(=O)N[C@H]3C(=O)N[C@H](C(=O)N[C@H](C(=O)O)c4cc(O)cc(O)c4-c4cc3ccc4O)[C@H](O)c3ccc(c(Cl)c3)Oc3cc2cc(c3O[C@@H]2O[C@H](CO)[C@@H](O)[C@H](O)[C@H]2O[C@H]2C[C@](C)(N)[C@H](O)[C@H](C)O2)Oc2ccc(cc2Cl)[C@H]1O	Streptococcus anginosus	broth microdilution	clinical isolate			MIC range	0.5 µg/mL (≈ 0.345 µM)
CNC(=O)c1cc(Oc2ccc(NC(=O)Nc3ccc4c(c3)OCO4)cc2)ccn1.O=C(O)C(F)(F)F	Drosophila melanogaster		ptc>dRet M955T	in food, concentration not given, 25 °C		rescue of viability	inactive
CCC(NC(C)C)C(O)c1ccc(O)c(O)c1 (centres unmarked)	Drosophila melanogaster	fluorescence		liquid food, 40 µg/mL, first instar larvae	relative to: solvent	fluorescein ingestion	21%

Structure (SMILES)	organism	test	test system	setting	scale	measurement	value
COC(=O)N1CCC[C@H](C(=O)NCc2nc(-c3ccccc3)cs2)C1	Plasmodium falciparum	SYBR Green growth	asexual blood-stage parasites, 3D7	72 h		EC50	> 5000 nM
CN(C)c1ccc(C(=C2C=CC(=[N+](C)C)C=C2)c2ccc(N(C)C)cc2)cc1	Drosophila melanogaster	fluorescence		liquid food, 40 µg/mL, first instar larvae	relative to: solvent	fluorescein ingestion	-65%
C[C@@H]1[C@H](O)[C@@H](C)/C=C/C=C/C=C/C=C/C=C/C=C/C=C/[C@H](O[C@@H]2O[C@H](C)[C@@H](O)[C@H](N)[C@@H]2O)C[C@@H]2O[C@](O)(C[C@@H](O)C[C@@H](O)[C@H](O)CC[C@@H](O)C[C@@H](O)CC(=O)O[C@H]1C)C[C@H](O)[C@H]2C(=O)O	Leishmania major		promastigotes	48 h, unit not given	relative to: compound minus Glu	anti-leishmanial effect difference	10.2
CC(C)OCC(=O)N1CCC[C@H](C(=O)NCc2nc(-c3ccccc3)cs2)C1	Plasmodium falciparum	SYBR Green growth	asexual blood-stage parasites, 3D7	72 h		EC50	170 ± 15 nM
O=C(Nc1ccc(CNc2ncnc3ccccc23)cc1)c1ccc(Cl)c(F)c1	Plasmodium falciparum	nanoluciferase readout	3D7 Hyp1-Nluc	20 µM, 72 h	relative to: DMSO	parasite growth	7.37%
CC1(C)S[C@@H]2[C@H](NC(=O)[C@H](N)c3ccc(O)cc3)C(=O)N2[C@H]1C(=O)O	Serratia marcescens		MTCC 4301	10 µg/mL		zone of inhibition	30 mm
CC(=O)NC[C@H]1CN(c2ccc(N3CCOCC3)c(F)c2)C(=O)O1	Staphylococcus epidermidis	broth microdilution	methicillin-resistant isolates			MIC50	0.5 µg/mL
Cc1ccc(NC(=O)N2Cc3[nH]cnc3C[C@H]2c2nc(-c3ccc4c(c3)OCO4)no2)cc1	Caenorhabditis elegans		N2	12.5 µM		median lifespan	21 days
O=C1C=C2CC3(O)COc4cc(O)ccc4C3=C2C=C1O (centres unmarked)	Drosophila melanogaster	fluorescence		liquid food, 40 µg/mL, first instar larvae	relative to: solvent	fluorescein ingestion	-21.4%
COC(=O)[C@@H](CCSC)NCc1cc2ccccc2nc1SC	Pseudomonas aeruginosa			8 µg/mL, added: pentamidine 100 µM	relative to: control	growth	97.7%
C[n+]1cc2c3c(ccc2c2ccc4cc5c(cc4c21)OCO5)OCO3	Drosophila melanogaster	fluorescence		liquid food, 40 µg/mL, first instar larvae	relative to: solvent	fluorescein ingestion	-15.1%
C=CC(=O)ON=C1C=CC(=C(C#N)c2ccccc2)C=C1	Clavispora lusitaniae	broth dilution	ATCC 34449	48 h, 37 °C		MFC	64 µg/mL (≈ 232 µM)
O=C(NCc1nc(-c2ccc(C(F)(F)F)cc2)cs1)[C@H]1CCCN(C(=O)COCCN2CCCCC2)C1	Plasmodium falciparum	SYBR Green growth	asexual blood-stage parasites, 3D7	72 h		EC50	18 ± 5.3 nM
Cc1cc(OC(C)C)ccc1C(=O)C(C)(C)NC(=O)c1sccc1C	Stromatinia cepivora	mycelial growth	PSA medium	20 °C		EC50	0.01 µg/mL
O=C(NCCN1CCCC1)c1cc(-c2ccc(CN3CCOCC3)cc2)nc2ccc(F)cc12	Plasmodium berghei	checkerboard model fit	HepG2 spheroids			maximum killing rate	0.116 h⁻¹
C[C@H]1[C@H](OC(=O)CCC(=O)O)O[C@@H]2O[C@@]3(C)CC[C@H]4[C@H](C)CC[C@@H]1[C@@]24OO3	Plasmodium berghei		NK65/GFP, mouse	subcutaneous, 22 µmol/kg daily for four days		cure rate	50%
C#CCON=C1C=CC(=C(C#N)c2ccccc2)C=C1	Clavispora lusitaniae	broth dilution	ATCC 34449	48 h, 37 °C		MFC	64 µg/mL (≈ 246 µM)
CNS(=O)(=O)c1ccccc1Nc1nc(Nc2ccc(N3CCOCC3)cc2OC)ncc1Br	Plasmodium falciparum	schizont egress, Nluc release	Hyp1-Nluc	10 x growth EC50, 4 h		inhibition	87.1%
Cc1c2c(nn1C)CSCc1cc(n(C)n1)CSc1cc(c3ccccc3c1)OCCCc1c(C(=O)O)n(C)c3c-2c(Cl)ccc13	Staphylococcus aureus	broth microdilution	MSSA isolates			MIC50	12.5 µM
COCC(=O)N1CCC[C@H](C(=O)NCc2nc(-c3ccc(C)cc3)cs2)C1	Plasmodium falciparum	SYBR Green growth	asexual blood-stage parasites, 3D7	72 h		EC50	24 ± 2.1 nM
COC(=O)[C@@H](NCc1cc2ccccc2nc1OCc1ccccc1)C(C)C	Pseudomonas aeruginosa			4 µg/mL, added: pentamidine 50 µM	relative to: control	growth	101%
COCC(=O)N1CCC[C@H](C(=O)NCc2nc(-c3ccc(NC4CC4)nc3)cs2)C1	Plasmodium falciparum	SYBR Green growth	asexual blood-stage parasites, 3D7	72 h		EC50	180 ± 23 nM
CC1(CNc2nc(-c3cccs3)nc(Cl)c2-c2c(F)cc(N)cc2F)COC1	Schistosoma japonicum		adult	1.2 µM, 2 h	relative to: DMSO control	motility	45%

Some of these lines once more:
Structure (SMILES)	organism	test	test system	setting	scale	measurement	value
CC(=O)NC[C@H]1CN(c2ccc(N3CCOCC3)c(F)c2)C(=O)O1	Staphylococcus epidermidis	broth microdilution	methicillin-resistant isolates			MIC50	0.5 µg/mL
Cc1ccc(NC(=O)N2Cc3[nH]cnc3C[C@H]2c2nc(-c3ccc4c(c3)OCO4)no2)cc1	Caenorhabditis elegans		N2	12.5 µM		median lifespan	21 days
O=C1C=C2CC3(O)COc4cc(O)ccc4C3=C2C=C1O (centres unmarked)	Drosophila melanogaster	fluorescence		liquid food, 40 µg/mL, first instar larvae	relative to: solvent	fluorescein ingestion	-21.4%
COC(=O)[C@@H](CCSC)NCc1cc2ccccc2nc1SC	Pseudomonas aeruginosa			8 µg/mL, added: pentamidine 100 µM	relative to: control	growth	97.7%
C[n+]1cc2c3c(ccc2c2ccc4cc5c(cc4c21)OCO5)OCO3	Drosophila melanogaster	fluorescence		liquid food, 40 µg/mL, first instar larvae	relative to: solvent	fluorescein ingestion	-15.1%
C=CC(=O)ON=C1C=CC(=C(C#N)c2ccccc2)C=C1	Clavispora lusitaniae	broth dilution	ATCC 34449	48 h, 37 °C		MFC	64 µg/mL (≈ 232 µM)
O=C(NCc1nc(-c2ccc(C(F)(F)F)cc2)cs1)[C@H]1CCCN(C(=O)COCCN2CCCCC2)C1	Plasmodium falciparum	SYBR Green growth	asexual blood-stage parasites, 3D7	72 h		EC50	18 ± 5.3 nM
